Results of several laboratories.
Compare with care: the assays were run in different laboratories. Several values in a cell are separate wells, animals, samples, runs or records. ± gives the spread as reported. In brackets after ≈: the same amount, converted by molar mass.
UCHL1: Ubiquitin carboxyl-terminal hydrolase isozyme L1 (UCHL1, Homo sapiens, UniProt P09936)
Chain of UniProt P09936 (whole entry, looked up): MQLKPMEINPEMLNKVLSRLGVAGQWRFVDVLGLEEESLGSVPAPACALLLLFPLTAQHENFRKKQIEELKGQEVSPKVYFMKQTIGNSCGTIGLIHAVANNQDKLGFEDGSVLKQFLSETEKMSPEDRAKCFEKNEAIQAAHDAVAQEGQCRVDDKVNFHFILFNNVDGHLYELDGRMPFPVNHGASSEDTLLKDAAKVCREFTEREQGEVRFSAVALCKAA

For `CC(=O)N1CCC(C(=O)N2CCN3C(=O)c4cc(-c5ccccc5)ccc4NC(=O)C3C2)CC1` (centres unmarked), the median lifespan was 17 days (Caenorhabditis elegans; N2; 3.125 µM).
`CN1C(=O)C(=C(C#N)C(=O)NCc2ccc(Cl)cc2)c2ccccc21` has a labelling of 43.6% (UCHL1; covalent, intact protein LC-MS; 12.5 µM).
For `CC(C)n1ncc2c(C(=O)NCC3(C)CNC3)cc(C3CC3)nc21`, the cell protection was 0.928% and 1.19% and 1.59% (Enterovirus D68; cytopathic effect; RD, US/MO/14-18947; 150 nM).
With `OC[C@H]1O[C@@H](O[C@@H]2[C@@H](O)[C@H](O[C@@H]3[C@@H](O)[C@H](O[C@@H]4[C@@H](O)[C@H](O[C@H]5[C@H](O)[C@@H](CO)OC(O)[C@@H]5O)O[C@H](CO)[C@H]4O)O[C@H](CO)[C@H]3O)O[C@H](CO)[C@H]2O)[C@H](O)[C@@H](O)[C@@H]1O` (some centres unmarked) the ΔG was -24 kcal/mol (Bacteroides uniformis; binding, ITC; pH 7.0, 25 °C, distal domain).
`COc1cccc(C(=O)C#Cc2ccc(F)c(F)c2)c1` has a biofilm formation of 83% (Pseudomonas aeruginosa; static biofilm; PA14; 10 µM, 24 h, static; relative to: DMSO).
`CN(CC1CCCN(CCc2cccc(C(F)(F)F)c2)C1)C(=O)c1ccco1` (centres unmarked) has an inhibition of 5.9% (Trypanosoma cruzi; reporter translation, Renilla luciferase mRNA translation; cell-free extract; 40 µM; relative to: DMSO).
With `OC[C@H]1O[C@@H](O[C@@H]2[C@@H](O)[C@H](O[C@H]3[C@H](O)[C@@H](CO)OC(O)[C@@H]3O)O[C@H](CO)[C@H]2O)[C@H](O)[C@@H](O)[C@@H]1O` (some centres unmarked) the ΔH was -22.5 kcal/mol (Bacteroides uniformis; binding, ITC; pH 7.0, 25 °C, distal domain).
`C(=N\Nc1ccccc1)/c1ccc(-c2ccc(/C=N/Nc3ccccc3)cc2)cc1` has a selectivity index of under 0.6 (Nakaseomyces glabratus; ATCC 2001; relative to: mammalian CC50 over MIC).
`Cc1ccc(C(=O)N(CCCN)[C@@H](c2oc3cc(Cl)ccc3c(=O)c2Cc2ccccc2)C(C)C)cc1` has an EC50 of 6.6 µM (Toxoplasma gondii; parasite growth; HFF, bradyzoite, alkaline-induced).
With `O=C(Cn1ccnc1[N+](=O)[O-])NCc1ccccc1` the selectivity index was over 82.4 (Trypanosoma cruzi; Vero, Tulahuen β-galactosidase; relative to: Vero CC50 over T. cruzi IC50).
With `COc1cc(-c2[o+]c3cc(O)cc(O)c3cc2O[C@@H]2O[C@H](CO)[C@@H](O)[C@H](O)[C@H]2O)ccc1O` the IC50 was over 100 µM (HIV-1; viral infection; TZM-bl, NL4-3 (CXCR4-tropic); 48 h).
`Cn1cc(-c2ccc(-c3cncc(Cl)c3N3CCC4(CCNC4=O)CC3)cc2)cn1` — result for “log2 fold change”: -1.63 (COLO 205; gene expression, microarray, item: PLAC8 mRNA; concentration not given, 2 h; relative to: untreated cells).
The control efficacy of `CCCCc1ccc(CNc2nc(N(C)C)nc(N(C)C)c2/N=N/c2ccc(Cl)cc2)cc1` is reported as 57% (Ostrinia furnacalis; corn seedlings; foliar spray, 50 mg/L, 7 days).
`CC(=Nc1ccc(N=Cc2cnccn2)cc1)N(C)C` — result for “worm burden reduction”: 100% (Necator americanus; infected hamsters; oral, 25 mg/kg single dose, 49 days post infection).
The EC90 of `[H]/N=C(/NCCCCC)N/N=C/c1c[nH]c2ccc(OC)cc12` is reported as 20.8 µM (Toxoplasma gondii; parasite growth; HFF, bradyzoite, glutamine-induced).
`Nc1nc(-c2ccccc2)nc2[nH]nc(Nc3ccc(C(F)(F)F)cc3)c12` has a clinical score of 0.4 (coxsackievirus B3; 31-1-93, NMRI mice, CVB3 chronic myocarditis; oral, 100 mg/kg twice daily, day 3, dosed days 3 to 10, score scale 0 to 7; direction not given).
Under “log2 fold change”, `Oc1ccccc1-c1n[nH]cc1-c1ccnc2ccccc12` is recorded as -0.15 (FUN31 (Candida albicans); kinase binding, MIB/MS competition; Candida albicans lysate; 1 µM; relative to: DMSO).
`COc1cc(C#CC(O)c2ccccc2OC)ccc1O` (centres unmarked) gave a biofilm formation of 61% (Pseudomonas aeruginosa; static biofilm; PA14; 10 µM, 24 h, static; relative to: DMSO).
For `C[C@@H](O)[C@H]1C(=O)N2C(C(=O)O)=C(SCCN=CN)C[C@H]12`, the bacterial load was 7.51 log10 CFU and 7.45 log10 CFU and 7.6 log10 CFU and 7.08 log10 CFU and 7.3 log10 CFU and 6.9 log10 CFU (Pseudomonas aeruginosa; BAA-2797, mouse, peritonitis model, spleen; intraperitoneal, 10 mg/kg single dose).
Under activity, `Cl.NCc1ccc(-c2nc(-c3ccc(OC(F)F)cc3)no2)cc1` is recorded as “inactive” (Clostridioides difficile; spore germination; ATCC 43255; 45 µM).
For `N=C(N)c1ccc(OCc2ccc(-c3ccccc3)cc2COc2ccc(C(=N)N)cc2)cc1`, “MIC of compound in combination” read 1.56 µg/mL (Escherichia coli; checkerboard; mcr-2 polymyxin-resistant; concentration not given, 20 h, together with: rifampicin).
With `CC(=O)NC[C@H]1CN(c2ccc(N3CCOCC3)c(F)c2)C(=O)O1` the MIC50 was 2 µg/mL (≈ 5.93 µM) (Streptococcus pneumoniae; penicillin-resistant, 10 isolates; serum 50%).
`COc1ccc(CN2CCN(C(=O)CCl)CC2)cc1F.Cl` has a labelling of 22.3% (UCHL1; covalent, intact protein LC-MS; 12.5 µM).
`O=C(CCCn1cnc([N+](=O)[O-])n1)Nc1ccc(F)c(Cl)c1` has an inhibition of -3.3% (Trypanosoma cruzi; reporter translation, Renilla luciferase mRNA translation; cell-free extract; 40 µM; relative to: DMSO).
`CC(=O)OC[C@H]1O[C@@H]([S-])[C@H](OC(C)=O)[C@@H](OC(C)=O)[C@@H]1OC(C)=O.CCP(CC)CC.[Au+]` gave an EC50 of 0.95 µM (Toxoplasma gondii; parasite growth; HFF, bradyzoite, alkaline-induced).
With `CCN(CCO)CCCC(C)Nc1ccnc2cc(Cl)ccc12` (centres unmarked) the inhibition was 9.13% (hepatitis E virus; viral replication, Renilla luciferase replicon; S10-3 replicon, genotype 1; 0.78 µM, 48 h).
For `c1coc(-c2n[nH]cc2-c2ccnc3ccccc23)c1`, “log2 fold change” read 0.2 (FUN31 (Candida albicans); kinase binding, MIB/MS competition; Candida albicans lysate; 10 µM; relative to: DMSO).
`Oc1ccc2c(c1)OC[C@]1(O)Cc3cc(O)c(O)cc3[C@H]21` gave an EC50 of 30.4 µM (Toxoplasma gondii; parasite growth, luciferase reporter; HFF, tachyzoite; 72 h).
For `N=C(N)c1ccc(OCc2cc(Br)cc(COc3ccc(C(=N)N)cc3)c2)cc1`, the MIC was 25 µg/mL (Escherichia coli; BW25113; in combination, lowest-FICI combination, together with: vancomycin).
`CCOCCn1cnc2nc(NCc3ccc(Cl)c(Cl)c3)[nH]c(=O)c21` has an MIC of 2 µg/mL (Clostridioides difficile; agar dilution anaerobic; ATCC 4381; 48 h).
For `CC(C)(C)c1cc(/C=C(\C#N)C(N)=S)cc(C(C)(C)C)c1O`, the EC90 was 16.3 µM (Toxoplasma gondii; parasite growth, luciferase reporter; HFF, tachyzoite; 72 h).
`COc1ccc(-c2noc(-c3ccc(CN)cc3)n2)cc1.Cl`: activity “inactive” (Clostridioides difficile; spore germination; ATCC 43255; 45 µM).
`COc1cccc(C(=O)C#Cc2ccc(O)c(OC)c2)c1` gave a biofilm formation of 65% (Pseudomonas aeruginosa; static biofilm; PA14; 10 µM, 24 h, static; relative to: DMSO).
For `Cc1ccc(Nc2cnnc3cc(-c4cnc(N5CCCN(C)CC5)nc4)ccc23)cn1`, the EC50 was 1.7 µM (Leishmania donovani; B10R cells).
The EC50 of `CCCC(=O)OCSc1ccccc1C(=O)NCCOc1ccnc2ccc(OC(F)(F)F)cc12` is reported as 2.32 ± 1.48 µM (HIV-1; virus-induced cytopathic effect, inhibitor, XTT; CEM-SS, RF; 6 days).
For `Cc1ncc([N+](=O)[O-])n1CCO`, the MIC was 0.5 µg/mL (Clostridioides difficile; agar dilution anaerobic; 3584; 48 h).
`CC[C@H]1CN2CCc3cc(OC)c(OC)cc3[C@@H]2C[C@@H]1C[C@H]1NCCc2cc(OC)c(OC)cc21` gave an EC50 of 0.031 µM (Toxoplasma gondii; parasite growth, luciferase reporter; HFF, tachyzoite; 72 h).
With `OC[C@H]1O[C@@H](O[C@@H]2[C@@H](O)[C@H](O[C@@H]3[C@@H](O)[C@H](O[C@H]4[C@H](O)[C@@H](CO)OC(O)[C@@H]4O)O[C@H](CO)[C@H]3O)O[C@H](CO)[C@H]2O)[C@H](O)[C@@H](O)[C@@H]1O` (some centres unmarked) the ΔG was -24.7 kcal/mol (Bacteroides uniformis; binding, ITC; pH 7.0, 25 °C, distal domain).
With `O=C(O)CCC(=O)OCCN(Cc1ccc(Oc2ccc([N+](=O)[O-])cc2)cc1)C(=O)C(Cl)Cl` the IC50 was 23.8 ± 6.97 µM (Leishmania martiniquensis; parasite growth; promastigotes; 72 h).
With `O=c1[nH]c(NCc2ccc(Cl)c(Cl)c2)nc2ncn(CCCCCN3CCOCC3)c12` the MIC was 2 µg/mL (Clostridioides difficile; agar dilution anaerobic; ATCC 4381; 48 h).
With `CC[C@H](C)CCCCC(=O)N[C@@H](CCN)C(=O)N[C@H](C(=O)N[C@@H](CCN)C(=O)N[C@H]1CCNC(=O)[C@H]([C@@H](C)O)NC(=O)[C@H](CCN)NC(=O)[C@H](CCN)NC(=O)[C@H](CC(C)C)NC(=O)[C@@H](CC(C)C)NC(=O)[C@H](CCN)NC1=O)[C@@H](C)O` the MIC was 0.214 µM (Pseudomonas aeruginosa; broth microdilution; ATCC 27736, cation-adjusted Mueller-Hinton broth).
`OC(CCN1CCCCC1)(c1ccccc1)C1CC2C=CC1C2` (centres unmarked): “EEG Alpha2-power Pz-O1” 3 µV² (resting-state EEG; healthy elderly humans; oral, 4 mg, eyes open, LS mean).
The biofilm formation of `OC(C#Cc1ccc(F)c(F)c1)c1cccc(Cl)c1` (centres unmarked) is reported as 136% (Pseudomonas aeruginosa; static biofilm; PA14; 10 µM, 24 h, static; relative to: DMSO).
The MIC90 of `Cc1c2c(nn1C)CSCc1cc(n(C)n1)CSc1cc(c3ccccc3c1)OCCCc1c(C(=O)O)n(C)c3c-2c(Cl)ccc13` is reported as 12.5 µM (≈ 8.4 µg/mL) (Staphylococcus aureus; broth microdilution; clinical isolates).

Repeated from above:
`O=C(CCCn1cnc([N+](=O)[O-])n1)Nc1ccc(F)c(Cl)c1` has an inhibition of -3.3% (Trypanosoma cruzi; reporter translation, Renilla luciferase mRNA translation; cell-free extract; 40 µM; relative to: DMSO).
`CC(=O)OC[C@H]1O[C@@H]([S-])[C@H](OC(C)=O)[C@@H](OC(C)=O)[C@@H]1OC(C)=O.CCP(CC)CC.[Au+]` gave an EC50 of 0.95 µM (Toxoplasma gondii; parasite growth; HFF, bradyzoite, alkaline-induced).
With `CCN(CCO)CCCC(C)Nc1ccnc2cc(Cl)ccc12` (centres unmarked) the inhibition was 9.13% (hepatitis E virus; viral replication, Renilla luciferase replicon; S10-3 replicon, genotype 1; 0.78 µM, 48 h).
For `c1coc(-c2n[nH]cc2-c2ccnc3ccccc23)c1`, “log2 fold change” read 0.2 (FUN31 (Candida albicans); kinase binding, MIB/MS competition; Candida albicans lysate; 10 µM; relative to: DMSO).
`Oc1ccc2c(c1)OC[C@]1(O)Cc3cc(O)c(O)cc3[C@H]21` gave an EC50 of 30.4 µM (Toxoplasma gondii; parasite growth, luciferase reporter; HFF, tachyzoite; 72 h).
